Assay results from different studies.
Each numbered part is a random draw from the data of one study; scales do not carry over between parts. Changes are numbered by the printed parent chain.

Study 1
Target: Histone acetyltransferase KAT6A, winged helix 1, GST fusion (KAT6A, Homo sapiens, UniProt Q92794, residues 1-85)
Method: protein binding microarray
Molecule type: double-stranded DNA, one strand shown
Matrix: in vitro
Tested at: not given
Notes: 8-mer, flanks averaged, mean of 2 arrays, mostly near background
Relative to: not given
Direction: higher = stronger binding
Measurement: E-score
Construct (chain): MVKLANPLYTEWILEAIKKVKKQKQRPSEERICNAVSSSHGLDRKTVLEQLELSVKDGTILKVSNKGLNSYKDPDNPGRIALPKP
ACTTGGGC: -0.0692
AATTCACA: -0.083
AACAAGAC: -0.193
CCGCCAGC: 0.263
CAGAAGCG: 0.0874
AAATGCTA: -0.196
CAAACTAG: -0.124
GGCAGGAA: 0.0411
CACATTAC: 0.0259
GTGTGTTA: -0.00563
CAATAAGG: -0.226
ACACGCCT: -0.0665
TAGTGAAA: -0.216
ATATAAGC: -0.0514
CTAAGCTA: -0.136
CCGAAAAA: -0.08
AGTAGTAG: 0.0988
ACTACCAC: -0.182
AGGATTAC: -0.0586

Study 2
Target: RNA binding protein fox-1 homolog 2, RRM domain, GST-SBP tag (RBFOX2, Homo sapiens, UniProt O43251-10, residues 100-194)
Method: RNA Bind-n-Seq
Molecule type: RNA
Matrix: in vitro
Tested at: 365 nM
Notes: natural RNA segment, single round, ends assumed
Relative to: no-protein control
Direction: higher = stronger binding
Measurement: RBNS enrichment (R)
Constant ends, left off below: GGGAGUUCUACAGUCCGACGAUC … UGGAAUUCUCGGGUGCCAA
Target sequence (chain): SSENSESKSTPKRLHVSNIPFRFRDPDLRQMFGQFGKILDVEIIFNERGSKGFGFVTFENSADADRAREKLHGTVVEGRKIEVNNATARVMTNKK
AGUAUCAGUUGUAAGCACAGAUGAUGAUCUGGCUGAGUUCUGAACAAAUCUUGGUCUAUGAGGUCUACACCAAUAACACCCUACUCUGGAAUGGUAACAGAGCCAGCGCU: 0.433
AUAUCUUUUCUUUAGAGAACUGAAAAGAGAGCAGAGAAUAUAACAUGAAAUGAUAGAUUUGACCUCCUCCCUGUUAUUUUCAAGUAGCUGGGAUUUUAAACUAGAUGACC: 0.405
CCUCUGCUGCACAUUUUGUUUAAGUGUUAACUGUUUCUGCUAUUAAUGUUGGAAACACAAAUAGUGCAAUUUGUGCAAUUGGAGAAUCUUGCCUUUUUUCUUGUCUCCCU: 0.428
GCUUUUAGUCUGGCCAGGGAUCUGACUCCUGAGUUGGUUGCCUCUCCCCUGCUCACUCCAGUCACAUAGAGAAUUGGUGUUUCCCGCAGUGGGGAUGCAGCUGUUGGACA: 0.672
UUUUCCCCAAACACUUUGCCAGCCACUGGUGGUCCCUGCUUUUCUGAGUACCAUGUUUCCAGGAGGGGCCAUGGGGGUCAGGGUGGUUUUGAGAGAGCAGGGUAAGGAAG: 0.535
GGCGUGCGCCACCUCCGCCCAGCUCAGAACUUCACUUUUAAAAGUAAUCUGUUCCCAGUGUGGUAUCUCAAAAUUGUGCUGAGAUUAUCUUAGUAUAUGUAUUGGAUUCC: 0.296
ACCACUUUCCCACACUGUGAACUAAUGACAAGUGACUUAUUUGCUCAUAAGUAAAUGUCUUCAUGUUGAUGUGUCCGUGAAAGUUGUGAUCUGUUGUAAUAUCAGUUACA: 0.325
UAGUGCUUCCUUAGUUUCCUAGCAACUAGGUGUGCAAAUCAUGUGUUGCAGCUUUACGGUUUUUAAACUAUUUUAGAUAUUCUUAAACUAUGAACCUUCUAAACAGUACC: 0.56
CUUAGAGAAAUUAAGAGGUAUCUUUGAUGUAUCUACCAGUAUUCAAUAGUAACAUUUACCUGUCCACUGUGAAUCAAAGCCUGGGGCACGCUACUCAACCUUAGACACAC: 0.389
CACACGUGGUCGGUCACAUUGCCCUGCCUUACCUCCCAGGGGCCAACCCCUCACUGGUCUUGCAUGAGCUAGAGGGUUGGGAAGCUGGGCUCAUUCCACGCAUUGCCUGC: 17.8
GAAAUAUCUGCUGAUUGUGCCCUACUCUUUGCACCUGACUUUUCCUAGUUGUCCUGGUGCUAACACAGGAGCUACACCUUGAUCCUCUCCUGGCAUGAAAAUAAAACAAA: 0.846
AAACCCCACACUAUGUAAUAGAAACACAUGUGUUUUUAUGUCUCAAAUAAAACUAUUAUAUCACUUGUCUCAGGCUCUAGAAACUUCUUUUCCACAGGUCAAUCCAAAUU: 0.722

Study 3
Target: Ras GTPase-activating protein-binding protein 1, full length (G3BP1, Homo sapiens, UniProt Q13283)
Sequence of UniProt Q13283 (whole entry, looked up): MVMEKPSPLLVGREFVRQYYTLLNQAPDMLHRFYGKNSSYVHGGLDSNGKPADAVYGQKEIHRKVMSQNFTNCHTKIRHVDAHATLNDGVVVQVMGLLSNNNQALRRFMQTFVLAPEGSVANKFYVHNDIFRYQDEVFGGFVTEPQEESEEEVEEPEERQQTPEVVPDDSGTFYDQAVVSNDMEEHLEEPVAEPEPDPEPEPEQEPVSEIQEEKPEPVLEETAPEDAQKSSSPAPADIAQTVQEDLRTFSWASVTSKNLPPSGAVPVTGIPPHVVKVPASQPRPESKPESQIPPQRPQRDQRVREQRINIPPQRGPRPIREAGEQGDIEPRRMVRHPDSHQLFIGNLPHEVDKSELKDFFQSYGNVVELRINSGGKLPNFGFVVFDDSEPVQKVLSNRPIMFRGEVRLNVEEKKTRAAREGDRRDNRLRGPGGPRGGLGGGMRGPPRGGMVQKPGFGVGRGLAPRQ
Method: RNA Bind-n-Seq
Molecule type: RNA
Matrix: in vitro
Tested at: 200 nM
Notes: whole 134-nt RNA, ends assumed
With: 150 mM LiCl
Relative to: input library
Direction: higher = stronger binding
Measurement: log2 enrichment
Library: 7-deaza-guanosine replaces G
Constant ends, left off below: GGGAGUUCUACAGUCCGACGAUC … UGGAAUUCUCGGGUGUCAAGG
UGGCCCUGGUGGCAUGCGGGGAGGAAGAGGUGGCCUCAUGGAUCGUGGUGGUCCCGGUGGAAUGUUCAGAGGUGGCCUUGGUGGAGACAG: 0.781
GUCCUGUGCUACACAUCGUAUGUACCGAAUCGGGAAAAAAAGGGAGGGUUUUUUUGGGAAAGUAUUAUGUUACGCCGUUCGGAUCUGCAC: -0.766
UGGGAGGUGGAUUUUGUUUAUUUUUGUAGCUCAUUUCCAGGGGUGGGAAUUUUUUUUUAAUAUGUGUCAUGAAUAAAGUUGUUUUUGAAA: 0.252
CCUGUGCUACACAUCGUAUGUACCGAAUCGGGGAAAAAGGGGUUUGGGGUUUUUUUGGGGAAAGUAUUAUGUUACGCCGUUCGGAUCUGC: 0.297
UGCCGUGCCGGGUGGACGGUCUGCUCGCCUGUCUGCGUGACGAAACUGAGGCACAAAGACGCGCUAUGCCAGCGGCGGGUAUAGCAAGGG: -1.11
AAGUCCUGUGCUACACAUCGUAUGUACCGAAUCGGAAAAAAAGGUUUUUGGAAAGGAAAGUAUUAUGUUACGCCGUUCGGAUCUGCACUU: -2.24
CUCAAGUCCUGUGCUACACAUCGUAUGUACCGAAUCGGUUGGGUUGGUUGGGGAAAGUAUUAUGUUACGCCGUUCGGAUCUGCACUUCCA: 0.248
CUGUGCUACACAUCGUAUGUACCGAAUCGGGAAAAAAAGGGGAAAAAAAGGGGAAAAAAAGGAAAGUAUUAUGUUACGCCGUUCGGAUCU: 0.338
CAAGUCCUGUGCUACACAUCGUAUGUACCGAAUCGGGCCCGGCCCGGGGCCCGGGGAAAGUAUUAUGUUACGCCGUUCGGAUCUGCACUU: -1.93
UAACUUUAGAGGAGGAUCUGAUGGAUAUGGCAGUGGACGUGGAUUUGGGGAUGGCUAUAAUGGGUAUGGAGGAGGACCUGGAGGUGUCAA: -0.354
UGCAGGGUCUGGGUAGCAGCUGGGCUUCCAGCUUUCUCCUUGCACCUGACUUGGGCUUUUUUCUCCUCACAGGAUGGGCCUUGACGGCAU: -1.23

Study 4
Target: ABI1, truncated, D143A, DHFR fusion (Arabidopsis thaliana)
Method: DHFR PCA, deep sequencing
Matrix: yeast
Notes: methotrexate growth selection, single substitutions
With: (+)-ABA 17 µM
Relative to: wild-type fitted maximum
Direction: higher = stronger binding
Measurement: relative binding score
Starting sequence: PYL1, truncated, DHFR fusion (Arabidopsis thaliana); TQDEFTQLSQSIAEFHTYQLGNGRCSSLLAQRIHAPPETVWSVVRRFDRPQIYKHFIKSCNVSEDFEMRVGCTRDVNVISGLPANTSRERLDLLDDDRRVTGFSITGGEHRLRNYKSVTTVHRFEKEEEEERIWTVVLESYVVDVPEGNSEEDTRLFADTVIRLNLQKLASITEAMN
E125S: 87.9%
T154V: 89.2%
V145A: 28.1%
E89S: -16.3%
T6I: 80.8%
H34F: 80.3%
A158H: 18.8%
T86W: 93.9%
H34E: 80.9%
L94H: 75.7%
D92C: 36.9%
F66R: 63.5%
V43S: 5.66%
D159Y: -1.29%
D97F: 71.8%
V100N: -10.1%

Study 5
Target: PABPC1L2, full length, GST fusion (mouse, UniProt A0ABA7IW68)
Method: RNAcompete
Molecule type: RNA
Matrix: in vitro
Tested at: 20 nM
Notes: 7-mer, probes averaged, single round
Relative to: mean of 7-mers
Direction: higher = stronger binding
Measurement: 7-mer Z-score
Residues (chain): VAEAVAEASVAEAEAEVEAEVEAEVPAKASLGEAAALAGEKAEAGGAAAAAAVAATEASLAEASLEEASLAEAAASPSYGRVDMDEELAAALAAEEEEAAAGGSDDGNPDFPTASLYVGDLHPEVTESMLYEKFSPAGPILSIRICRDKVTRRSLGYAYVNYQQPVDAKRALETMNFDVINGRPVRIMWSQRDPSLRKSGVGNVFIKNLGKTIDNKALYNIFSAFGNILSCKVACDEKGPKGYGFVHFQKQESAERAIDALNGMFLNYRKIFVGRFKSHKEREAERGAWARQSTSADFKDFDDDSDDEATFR
UAUUUGA: -0.231
GUUCGGA: -0.215
ACUGAUU: -0.0409
CUGAAUU: -0.19
AGAUUUC: -0.304
AAACCGU: 0.416
AGGGUCU: -0.0917
GGAGUUC: -0.164
UGCACAG: -0.171
CUAGAGC: 0.0243
GAACUGA: 0.102
UUCGUCA: -0.45
GUUUUUC: -0.322
GAUCACC: -0.242
GGAUAAU: 0.0207
UAUCGCU: -0.284

Other studies, line by line
PhoQ, residues 284 288 289 292 302 303 SASVAL  fold induction (PhoP, residues 12 14 15 18 19 IQFRS (Escherichia coli, UniProt P23836); Sort-seq, item: YFP reporter; E. coli; PhoQ-PhoP variant library, with: 10 µM Mg2+; relative to: high Mg2+ state, higher = stronger signaling): 8.51
